{"data": "Experimental data pooled from the literature", "route": "intravenous", "note": "Compare with care: the assays were run in different laboratories."}
{"SMILES": "CC12CC3CC(C)(C1)CC(NC(=O)Nc1ccc(C(=O)N4CCC[C@H](C(N)=O)C4)cc1F)(C3)C2", "system": "Sprague-Dawley rat, plasma", "setting": "10 mg/kg", "clearance": "20.2 mL/min"}
{"SMILES": "Cc1cc(N2CCC(C#N)(C3(C)CC3)C2=O)cc(C(=O)NCc2cc(F)cc(-c3cnn(C)c3)c2)n1 (racemic)", "system": "male Sprague-Dawley rat, plasma", "setting": "0.9 mg/kg", "clearance": "7.2 mL/min/kg"}
{"SMILES": "COCCCN1CCc2c(Cc3ccc(Cl)cc3)[nH]c3c(OC(F)F)ccc(c23)C1=O", "system": "male Sprague-Dawley rat, blood", "setting": "2.5 mg/kg", "clearance": "35.2 mL/min/kg"}
{"SMILES": "CSCOC1C(=O)C2(C)C(OCSC)CC3OCC3(OC(C)=O)C2C(OC(=O)c2ccccc2)C2(O)CC(OC(=O)C(O)C(C=C(C)C)NC(=O)OC(C)(C)C)C(C)=C1C2(C)C (stereo not drawn)", "system": "male Sprague-Dawley rat, plasma", "setting": "2 mg/kg", "clearance": "127 mL/min/kg"}
{"SMILES": "O=c1c(-c2cccnc2)c[nH]n1-c1ccc(CO)cn1", "system": "rat, blood", "setting": "1.8 mg/kg", "clearance": "25 mL/min/kg"}
{"SMILES": "CNC(=O)N[C@]1(C)CCC[C@@]2(C)C3CC[C@@]4(C)C[C@]3(CCC21)CC4=O (single isomer, unassigned)", "system": "male Sprague-Dawley rat, plasma", "setting": "2 mg/kg", "clearance": "31 mL/min"}
{"SMILES": "COc1cc2ncnc(Oc3ccc(Nc4nccc5[nH]cc(-c6ccc(F)cc6)c(=O)c45)cc3F)c2cc1OC", "system": "male Sprague-Dawley rat, plasma", "setting": "5 mg/kg", "clearance": "0.167 mL/min/kg"}
{"SMILES": "Cc1ccc(OCC(=O)N(Cc2cccs2)c2ccn[nH]2)cc1", "system": "female Sprague-Dawley rat, plasma", "setting": "1 mg/kg, single dose", "clearance": "56.4 mL/min/kg"}
{"SMILES": "COc1ccc(COc2c(OC)ccc3c2C[C@@H](C(=O)O)N(c2nc4ccc(F)cc4o2)C3)cc1", "system": "male Sprague-Dawley rat, plasma", "setting": "1 mg/kg", "clearance": "5.3 mL/min/kg"}
{"SMILES": "N[C@@H](COc1ccccc1C(F)(F)F)c1ccccc1", "system": "rat, plasma", "setting": "5 mg/kg", "clearance": "292 mL/min/kg"}
{"SMILES": "COc1ccc(COc2c(OC)ccc3c2C[C@@H](C(=O)O)N(c2nc4ccc(F)cc4o2)C3)cn1", "system": "male Sprague-Dawley rat, plasma", "setting": "1 mg/kg", "clearance": "5 mL/min/kg"}
{"SMILES": "Cn1cc(-c2cc(N3CCCCS3(=O)=O)ccc2N[C@H]2CC[C@H](C)CC2)c2cc[nH]c2c1=O (stereo in doubt)", "system": "Sprague-Dawley rat, plasma", "setting": "1 mg/kg", "clearance": "59.2 mL/min/kg"}
{"note": "For quick reference, copied from above:"}
{"SMILES": "CNC(=O)N[C@]1(C)CCC[C@@]2(C)C3CC[C@@]4(C)C[C@]3(CCC21)CC4=O (single isomer, unassigned)", "system": "male Sprague-Dawley rat, plasma", "setting": "2 mg/kg", "clearance": "31 mL/min"}
